Results gathered from unrelated publications.
Every numbered part comes from another study and shows a few of its results, in no order.
UniProt P31751, sequence (whole entry, looked up): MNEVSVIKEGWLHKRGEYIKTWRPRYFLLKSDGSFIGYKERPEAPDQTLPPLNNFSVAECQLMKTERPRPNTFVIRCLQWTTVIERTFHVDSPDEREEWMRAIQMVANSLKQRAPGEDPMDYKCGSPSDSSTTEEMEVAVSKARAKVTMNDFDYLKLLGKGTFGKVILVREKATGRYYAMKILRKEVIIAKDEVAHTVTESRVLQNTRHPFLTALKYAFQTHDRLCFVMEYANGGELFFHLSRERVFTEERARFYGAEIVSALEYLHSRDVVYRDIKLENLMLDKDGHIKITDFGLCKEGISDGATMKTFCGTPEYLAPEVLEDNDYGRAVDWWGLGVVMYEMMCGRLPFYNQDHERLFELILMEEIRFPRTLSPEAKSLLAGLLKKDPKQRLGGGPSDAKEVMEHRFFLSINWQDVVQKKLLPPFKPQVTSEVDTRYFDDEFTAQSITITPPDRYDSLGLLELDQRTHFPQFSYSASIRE
UniProt P35968, sequence (whole entry, looked up): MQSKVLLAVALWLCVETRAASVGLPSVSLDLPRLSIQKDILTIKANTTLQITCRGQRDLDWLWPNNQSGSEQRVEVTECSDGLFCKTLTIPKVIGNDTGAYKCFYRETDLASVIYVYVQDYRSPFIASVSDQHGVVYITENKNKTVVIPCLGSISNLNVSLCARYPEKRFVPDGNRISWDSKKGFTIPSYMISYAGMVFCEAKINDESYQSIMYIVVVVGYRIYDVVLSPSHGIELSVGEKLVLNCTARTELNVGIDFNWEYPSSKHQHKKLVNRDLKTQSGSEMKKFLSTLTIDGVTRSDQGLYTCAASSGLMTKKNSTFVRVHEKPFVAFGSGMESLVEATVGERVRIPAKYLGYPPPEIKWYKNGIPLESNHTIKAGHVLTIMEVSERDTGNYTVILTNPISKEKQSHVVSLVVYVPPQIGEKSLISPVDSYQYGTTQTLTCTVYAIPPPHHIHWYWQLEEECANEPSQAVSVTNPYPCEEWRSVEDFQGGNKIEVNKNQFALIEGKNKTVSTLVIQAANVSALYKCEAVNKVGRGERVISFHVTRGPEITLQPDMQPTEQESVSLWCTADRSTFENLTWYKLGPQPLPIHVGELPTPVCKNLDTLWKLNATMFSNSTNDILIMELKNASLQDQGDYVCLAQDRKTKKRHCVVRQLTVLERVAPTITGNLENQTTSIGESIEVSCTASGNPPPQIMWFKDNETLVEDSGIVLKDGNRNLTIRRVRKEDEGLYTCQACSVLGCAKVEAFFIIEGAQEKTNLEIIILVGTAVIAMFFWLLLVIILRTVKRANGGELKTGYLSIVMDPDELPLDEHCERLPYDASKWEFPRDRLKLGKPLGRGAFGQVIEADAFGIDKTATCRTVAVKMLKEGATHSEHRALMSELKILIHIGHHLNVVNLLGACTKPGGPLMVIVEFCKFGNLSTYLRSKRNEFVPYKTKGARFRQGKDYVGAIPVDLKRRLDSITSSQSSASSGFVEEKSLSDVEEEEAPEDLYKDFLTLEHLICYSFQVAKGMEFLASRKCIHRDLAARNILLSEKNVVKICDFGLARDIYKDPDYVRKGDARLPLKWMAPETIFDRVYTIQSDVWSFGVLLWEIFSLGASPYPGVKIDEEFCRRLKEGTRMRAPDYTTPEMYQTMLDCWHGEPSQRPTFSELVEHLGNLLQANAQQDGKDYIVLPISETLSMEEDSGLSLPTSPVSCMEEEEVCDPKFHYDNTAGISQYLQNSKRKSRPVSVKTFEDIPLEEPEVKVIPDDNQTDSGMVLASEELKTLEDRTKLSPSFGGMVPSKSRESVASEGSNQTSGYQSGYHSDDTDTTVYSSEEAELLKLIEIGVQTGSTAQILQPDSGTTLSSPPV
UniProt Q15759, sequence (whole entry, looked up): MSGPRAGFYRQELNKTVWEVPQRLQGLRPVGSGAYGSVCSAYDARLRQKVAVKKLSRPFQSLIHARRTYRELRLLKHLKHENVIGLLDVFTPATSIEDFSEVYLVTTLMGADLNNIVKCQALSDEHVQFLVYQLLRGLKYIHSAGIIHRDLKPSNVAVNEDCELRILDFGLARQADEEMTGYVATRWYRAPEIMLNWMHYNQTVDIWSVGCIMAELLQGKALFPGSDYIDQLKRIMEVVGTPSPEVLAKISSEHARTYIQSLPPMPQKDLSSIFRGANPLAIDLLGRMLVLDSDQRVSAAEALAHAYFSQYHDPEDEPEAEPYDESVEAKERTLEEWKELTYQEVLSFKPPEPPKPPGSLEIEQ
UniProt P50750, sequence (whole entry, looked up): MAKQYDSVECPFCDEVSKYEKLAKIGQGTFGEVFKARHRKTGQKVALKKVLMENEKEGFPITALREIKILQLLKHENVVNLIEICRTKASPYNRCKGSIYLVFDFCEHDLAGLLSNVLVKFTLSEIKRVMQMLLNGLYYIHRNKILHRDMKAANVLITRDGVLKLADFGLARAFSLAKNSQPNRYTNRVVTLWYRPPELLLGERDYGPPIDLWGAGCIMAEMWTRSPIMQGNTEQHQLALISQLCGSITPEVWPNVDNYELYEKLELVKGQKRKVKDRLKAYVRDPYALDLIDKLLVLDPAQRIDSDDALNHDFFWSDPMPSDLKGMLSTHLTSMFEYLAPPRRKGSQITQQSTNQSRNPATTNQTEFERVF
UniProt Q8N4C8, sequence (whole entry, looked up): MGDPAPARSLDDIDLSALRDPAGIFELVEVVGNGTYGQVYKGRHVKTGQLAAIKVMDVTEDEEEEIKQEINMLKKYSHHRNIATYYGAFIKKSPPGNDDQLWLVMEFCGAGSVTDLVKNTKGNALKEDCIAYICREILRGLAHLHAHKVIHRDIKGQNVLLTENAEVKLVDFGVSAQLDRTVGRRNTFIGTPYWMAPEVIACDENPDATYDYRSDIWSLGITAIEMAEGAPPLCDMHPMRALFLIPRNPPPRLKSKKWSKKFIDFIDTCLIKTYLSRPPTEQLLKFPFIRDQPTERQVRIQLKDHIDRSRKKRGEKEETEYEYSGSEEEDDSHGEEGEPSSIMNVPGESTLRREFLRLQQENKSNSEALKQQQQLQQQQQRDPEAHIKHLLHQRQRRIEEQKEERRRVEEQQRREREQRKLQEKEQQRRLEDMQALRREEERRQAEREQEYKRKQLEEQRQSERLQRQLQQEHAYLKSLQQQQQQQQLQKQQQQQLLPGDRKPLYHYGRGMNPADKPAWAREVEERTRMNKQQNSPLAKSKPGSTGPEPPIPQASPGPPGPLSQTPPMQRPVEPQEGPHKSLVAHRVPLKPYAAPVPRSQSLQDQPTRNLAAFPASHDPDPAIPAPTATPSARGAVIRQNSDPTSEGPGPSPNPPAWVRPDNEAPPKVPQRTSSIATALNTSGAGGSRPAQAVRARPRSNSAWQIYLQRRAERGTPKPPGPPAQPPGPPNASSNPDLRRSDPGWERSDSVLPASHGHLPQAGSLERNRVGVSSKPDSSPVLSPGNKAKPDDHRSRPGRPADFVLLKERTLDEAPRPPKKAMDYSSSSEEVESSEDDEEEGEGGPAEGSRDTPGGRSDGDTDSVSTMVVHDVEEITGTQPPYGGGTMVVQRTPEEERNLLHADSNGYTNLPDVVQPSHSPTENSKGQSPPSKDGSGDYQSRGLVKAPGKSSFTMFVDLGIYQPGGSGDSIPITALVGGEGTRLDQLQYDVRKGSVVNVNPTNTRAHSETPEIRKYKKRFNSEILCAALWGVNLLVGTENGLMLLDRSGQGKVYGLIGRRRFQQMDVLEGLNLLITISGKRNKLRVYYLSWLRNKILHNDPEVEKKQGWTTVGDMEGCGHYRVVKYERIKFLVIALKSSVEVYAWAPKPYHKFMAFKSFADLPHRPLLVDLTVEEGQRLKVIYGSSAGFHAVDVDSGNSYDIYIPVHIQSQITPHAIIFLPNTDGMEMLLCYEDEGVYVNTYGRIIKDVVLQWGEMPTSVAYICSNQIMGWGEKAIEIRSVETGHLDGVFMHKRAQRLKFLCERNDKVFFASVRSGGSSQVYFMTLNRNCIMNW
UniProt Q6P2M8, sequence (whole entry, looked up): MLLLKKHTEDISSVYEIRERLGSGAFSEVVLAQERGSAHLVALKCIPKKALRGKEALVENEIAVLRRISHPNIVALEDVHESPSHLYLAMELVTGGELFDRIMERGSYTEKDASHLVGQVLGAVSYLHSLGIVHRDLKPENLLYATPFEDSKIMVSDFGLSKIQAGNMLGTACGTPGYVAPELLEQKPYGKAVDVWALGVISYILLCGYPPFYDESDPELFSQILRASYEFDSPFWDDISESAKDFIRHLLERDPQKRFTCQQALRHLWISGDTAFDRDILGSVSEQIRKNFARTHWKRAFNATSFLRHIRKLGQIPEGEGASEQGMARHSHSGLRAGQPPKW
UniProt Q16539, sequence (whole entry, looked up): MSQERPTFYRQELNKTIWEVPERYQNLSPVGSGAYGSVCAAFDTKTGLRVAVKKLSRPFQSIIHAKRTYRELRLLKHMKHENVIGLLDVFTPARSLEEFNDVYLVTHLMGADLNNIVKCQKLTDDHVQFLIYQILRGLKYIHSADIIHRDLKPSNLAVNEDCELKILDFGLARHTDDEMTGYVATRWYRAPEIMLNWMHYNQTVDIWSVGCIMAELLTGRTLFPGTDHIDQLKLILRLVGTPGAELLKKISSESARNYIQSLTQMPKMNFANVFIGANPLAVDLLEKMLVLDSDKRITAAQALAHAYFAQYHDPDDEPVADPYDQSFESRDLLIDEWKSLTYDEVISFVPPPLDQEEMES

Set 1
Compound: CC(C)[C@H](CO)Nc1nc(Nc2cccc(Cl)c2)c2ncn(C(C)C)c2n1
Effect on: enzyme activity
Mode: inhibitor
Concentration: 0.5 µM
Relative to: control
target	remaining activity
Calcium/calmodulin-dependent protein kinase type IV (CAMK4, Homo sapiens, UniProt Q16566)	95.3%
Hepatocyte growth factor receptor (MET, Homo sapiens, UniProt P08581)	96.2%
Vascular endothelial growth factor receptor 2 (KDR, Homo sapiens, UniProt P35968)	95%
Calcium/calmodulin-dependent protein kinase type 1B (PNCK, Homo sapiens, UniProt Q6P2M8)	97.8%
Serine/threonine-protein kinase MRCK beta (CDC42BPB, Homo sapiens, UniProt Q9Y5S2)	108%
Cyclin-dependent kinase 9, with cyclin K (CDK9, Homo sapiens, UniProt P50750)	63.6%
Mitogen-activated protein kinase 14 (MAPK14, Homo sapiens, UniProt Q16539)	99.4%
Misshapen-like kinase 1 (MINK1, Homo sapiens, UniProt Q8N4C8)	98.6%
Mitogen-activated protein kinase 11 (MAPK11, Homo sapiens, UniProt Q15759)	109%
Dual specificity protein kinase CLK3 (CLK3, Homo sapiens, UniProt P49761)	89.7%
G protein-coupled receptor kinase 4 (GRK4, Homo sapiens, UniProt P32298)	91.1%
Serine/threonine-protein kinase DCLK2 (DCLK2, Homo sapiens, UniProt Q8N568)	100%
RAC-beta serine/threonine-protein kinase (AKT2, Homo sapiens, UniProt P31751)	90%
Dual specificity mitogen-activated protein kinase kinase 1 (MAP2K1, Homo sapiens, UniProt Q02750)	96%

Set 2
Target: RNA binding protein fox-1 homolog 2, RRM domain, GST-SBP tag (RBFOX2, Homo sapiens, UniProt O43251-10, residues 100-194)
Method: RNA Bind-n-Seq
Form: RNA
Matrix: in vitro
Concentration: 365 nM
Setting: natural RNA segment, single round, ends assumed
Relative to: no-protein control
Direction: higher = stronger binding
Shared flanks, not repeated: GGGAGUUCUACAGUCCGACGAUC … UGGAAUUCUCGGGUGCCAA
Residues (chain): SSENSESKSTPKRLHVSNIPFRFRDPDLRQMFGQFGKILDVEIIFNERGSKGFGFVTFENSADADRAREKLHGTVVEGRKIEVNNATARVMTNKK
Strand	RBNS enrichment (R)
UGGGGGGAGAACAGAAGGGGGACGACGCCCCCGCACCUCCUGCGAUCUGGCUGGCUUGGAUCUCGUUUUUAACCCGUUCCUGCCCCACCUGCCCUAUAGUUAUGGCCUGU	0.226
GUAAUAAUUGUUCUGCAAAGGUUAAGAAAGCCACUGAGUCACAGUCUUCAUGGACUUUUGGGGUUUCUUAGUGUUGGAUUUUUGGGGUUUCUCAUUUACUUUUUACUCUU	0.5
GUCAGGACACUAGUUCAGUUCCCAGUACCCACAUGGUGGCUCACAACCUUCUGUGACUACAGUUCCAGAUAACCUGACACCCUCCUCUGGCCUCCUCGGGUGCCUGUGGU	0.401
GACCGUGUUUGGAGGCUUCUGGUAUCCUAAACACCAAGAUCCACUCAGCCCUGUGCCCUGAUGAUGUCCCUGGCCUGUGAAUUCUGUCCUUGACUGACCCGUGCUCCUGG	0.256
CCCCCACCCACCUGGGCACCAUGGCCCUCCUCCAAUGGGUAAGUCAGUACCUGGGAAGUACGCCUGUGGGCUCUGGGGUCUAUCGCCUGCAUCAAGGAAAAGGUAUGAUG	3.01
UUGUAACAAUUUAUGUUUUACAGUUCCUUUUACAAAGUGUAUUUUUACUCCAGUGUGUCUUGGCUUACACAAUUUAACAGCUUUCUGAUUUUAUUCACAUACAGUGAUGA	0.628
GUACAUUUAAUGUACACUUUGCGGUAGAUUAAGGAAUAUACUGCAUAUUUCUUUUUUUAAACUCGGGAUAUUGAACUUCAGAAAACAAAUAUUAGCACAAAACACUAAAA	0.78
GCCACAGGGAUGAGGUGAAGCCAUCUCUGUCCUUCCUGGAAUACCGGAGAUCCAGGGGCCUCCAGCUGCUCCUUUCUUCUGUGUCCUGUUAUUUGGGUCCCAGAUGGAGC	0.274

Set 3
Target: RING finger protein unkempt homolog, zinc fingers 1-6, GST-SBP tag (UNK, Homo sapiens, UniProt Q9C0B0, residues 30-357)
UniProt Q9C0B0, sequence (30-357, looked up): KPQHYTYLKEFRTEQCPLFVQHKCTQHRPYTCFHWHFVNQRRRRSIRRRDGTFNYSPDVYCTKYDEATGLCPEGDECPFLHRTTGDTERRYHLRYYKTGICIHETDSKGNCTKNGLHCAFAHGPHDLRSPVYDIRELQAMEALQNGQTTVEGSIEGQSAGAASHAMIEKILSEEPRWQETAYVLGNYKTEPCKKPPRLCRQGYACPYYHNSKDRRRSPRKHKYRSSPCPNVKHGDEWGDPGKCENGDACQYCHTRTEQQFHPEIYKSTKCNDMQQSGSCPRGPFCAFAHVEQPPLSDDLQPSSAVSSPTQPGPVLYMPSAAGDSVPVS
Method: RNA Bind-n-Seq
Form: RNA
Matrix: in vitro
Concentration: not given
Setting: RNA with constant flanks, ends assumed
Relative to: input RNA pool
Direction: higher = stronger binding
Shared flanks, not repeated: GGGAGUUCUACAGUCCGACGAUC … CAACAGAGGAUUGAGCAUCA
Strand	bound/input enrichment
UUUCCUGGGAACAGCACCCAGUACAACAUCCUGGAAGGGUUGGAAAAGCUCAAACAUCCCGACUUUCUGAAGCAGCCACUGGCCACCCAAAAGGAUCUCACUGGCCAGGUGCCCACUCCU	0.14 ratio
AGUCUUAAAAGACCCUGGGAAGAUGAUCCUCCAAAUGUACAUAUUAUUGGAAAUCUGCCUUUCCGUGUUUCAACUCCACUGAUUAUCAAGUGGCUUGAAAAUAUUUCCUGUAGAGAUGGA	0.194 ratio
AGUAUAUCCAGCAGGGAUGUUCAGCCUGUUGCCUAUGAAGAGCCUAAACAUUGGUGUUCAACCGUCUACUAUGAAUUAAACAAUCGUGUUGGAGAAGCUUUUCAUGCAUCUUCUACUAGU	0.25 ratio
CAACAAUACUCAGGGAGGAGACUCCCAUAAUGGAAACUUUGUCAUUCCCCAGAUACAAUGCCGCUGAGCUUGUGGUUCAUAUUCGCAAUAAAUUAUUAACAGGAGCAGAUGGCAAAAACC	0.275 ratio
CAGUUGAAGACAGAGAAGGAUGAAAAGGAACUUUAUAAGGUACAUUUGAAGAAUACAGAAACCGAAAAUACCAAGCUUAUGUCAGAGGUCCAGACUUUAAAAAAUUUAGAUGGGAACAAA	0.78 ratio
ACUGAGCAGAAUGAAGAGUUGAGUAUCUUAUAUCCAGCUGCCAUUGUGACUAUUGAUGGAUUCCGCCUUUUUCAAUCUCUUCGUGCUUGUCGAAAUCAGGUAGCAAAAGCUGCAGCAUCA	0.153 ratio
GGGAAGCAGUUUGACUCUCCCAUGCCAAGCCCCUUCCAUGGUGGAAGUUUCACUCUUCCCUCCGACACUAUGAAGAAUGAGAGAGUCUCAGAAGGACCACGACCCUUUGCCCCUGUCUUC	0.171 ratio
AAACUAAAUGGAACCAUGUGCUAAUUUUUCACAAUUAUUGACCUGUAUUGAUUGCCACUGCCGUUUGGUAUUUCCCUUUACUUUGGUGGCCUGCUUCCCUCAUGCCCUGGAAUACAACUC	0.261 ratio

Set 4
Compound: O=C1CCc2cc(Nc3cc(OC4CCOCC4)c([N+](=O)[O-])cc3Cl)ccc2N1
Concentration: 1 µM
target	test	remaining binding [%]
AP2-associated protein kinase 1 (AAK1, Homo sapiens, UniProt Q2M2I8)	binding	100
Non-receptor tyrosine-protein kinase TYK2, JH1 (TYK2, Homo sapiens, UniProt P29597)	cell-free assay, competition with immobilised ligand	100
Phosphatidylinositol 4,5-bisphosphate 3-kinase catalytic subunit alpha isoform (PIK3CA, Homo sapiens, UniProt P42336, Q546K)	cell-free assay, competition with immobilised ligand	70
RAC-beta serine/threonine-protein kinase (AKT2, Homo sapiens, UniProt P31751)	cell-free assay, competition with immobilised ligand	82
Cyclin-dependent kinase 19 (CDK19, Homo sapiens, UniProt Q9BWU1)	competition binding	72

A few entries again (set 3):
Strand	bound/input enrichment
UUUCCUGGGAACAGCACCCAGUACAACAUCCUGGAAGGGUUGGAAAAGCUCAAACAUCCCGACUUUCUGAAGCAGCCACUGGCCACCCAAAAGGAUCUCACUGGCCAGGUGCCCACUCCU	0.14 ratio
AGUCUUAAAAGACCCUGGGAAGAUGAUCCUCCAAAUGUACAUAUUAUUGGAAAUCUGCCUUUCCGUGUUUCAACUCCACUGAUUAUCAAGUGGCUUGAAAAUAUUUCCUGUAGAGAUGGA	0.194 ratio
AGUAUAUCCAGCAGGGAUGUUCAGCCUGUUGCCUAUGAAGAGCCUAAACAUUGGUGUUCAACCGUCUACUAUGAAUUAAACAAUCGUGUUGGAGAAGCUUUUCAUGCAUCUUCUACUAGU	0.25 ratio
CAACAAUACUCAGGGAGGAGACUCCCAUAAUGGAAACUUUGUCAUUCCCCAGAUACAAUGCCGCUGAGCUUGUGGUUCAUAUUCGCAAUAAAUUAUUAACAGGAGCAGAUGGCAAAAACC	0.275 ratio
CAGUUGAAGACAGAGAAGGAUGAAAAGGAACUUUAUAAGGUACAUUUGAAGAAUACAGAAACCGAAAAUACCAAGCUUAUGUCAGAGGUCCAGACUUUAAAAAAUUUAGAUGGGAACAAA	0.78 ratio
ACUGAGCAGAAUGAAGAGUUGAGUAUCUUAUAUCCAGCUGCCAUUGUGACUAUUGAUGGAUUCCGCCUUUUUCAAUCUCUUCGUGCUUGUCGAAAUCAGGUAGCAAAAGCUGCAGCAUCA	0.153 ratio
